Measurements pooled from the literature.
A part holds a random share of what one study measured.
Sequence of UniProt Q9UQB9 (whole entry, looked up): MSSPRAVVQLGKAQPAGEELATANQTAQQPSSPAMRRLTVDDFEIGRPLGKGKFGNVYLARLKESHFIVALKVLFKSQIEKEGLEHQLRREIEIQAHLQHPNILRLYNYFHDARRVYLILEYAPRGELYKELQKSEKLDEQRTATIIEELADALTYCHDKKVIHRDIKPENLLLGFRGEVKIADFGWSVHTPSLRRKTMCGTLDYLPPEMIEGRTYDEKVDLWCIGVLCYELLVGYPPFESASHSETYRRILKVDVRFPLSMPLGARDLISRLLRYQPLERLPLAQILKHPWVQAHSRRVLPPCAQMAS
Sequence of UniProt O00238 (whole entry, looked up): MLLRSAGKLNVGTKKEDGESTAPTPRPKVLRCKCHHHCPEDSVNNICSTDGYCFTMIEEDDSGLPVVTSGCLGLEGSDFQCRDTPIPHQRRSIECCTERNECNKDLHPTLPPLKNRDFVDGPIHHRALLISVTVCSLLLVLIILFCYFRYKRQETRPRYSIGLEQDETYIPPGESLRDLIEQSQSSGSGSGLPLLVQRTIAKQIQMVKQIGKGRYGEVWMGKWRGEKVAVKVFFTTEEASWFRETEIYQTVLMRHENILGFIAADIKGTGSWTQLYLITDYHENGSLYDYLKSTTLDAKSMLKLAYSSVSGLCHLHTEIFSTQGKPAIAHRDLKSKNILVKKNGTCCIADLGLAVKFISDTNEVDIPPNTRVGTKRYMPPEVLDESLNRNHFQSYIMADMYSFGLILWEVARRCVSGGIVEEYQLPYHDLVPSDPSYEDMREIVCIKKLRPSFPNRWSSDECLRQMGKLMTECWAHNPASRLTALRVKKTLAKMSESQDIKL
Sequence of UniProt Q99759 (whole entry, looked up): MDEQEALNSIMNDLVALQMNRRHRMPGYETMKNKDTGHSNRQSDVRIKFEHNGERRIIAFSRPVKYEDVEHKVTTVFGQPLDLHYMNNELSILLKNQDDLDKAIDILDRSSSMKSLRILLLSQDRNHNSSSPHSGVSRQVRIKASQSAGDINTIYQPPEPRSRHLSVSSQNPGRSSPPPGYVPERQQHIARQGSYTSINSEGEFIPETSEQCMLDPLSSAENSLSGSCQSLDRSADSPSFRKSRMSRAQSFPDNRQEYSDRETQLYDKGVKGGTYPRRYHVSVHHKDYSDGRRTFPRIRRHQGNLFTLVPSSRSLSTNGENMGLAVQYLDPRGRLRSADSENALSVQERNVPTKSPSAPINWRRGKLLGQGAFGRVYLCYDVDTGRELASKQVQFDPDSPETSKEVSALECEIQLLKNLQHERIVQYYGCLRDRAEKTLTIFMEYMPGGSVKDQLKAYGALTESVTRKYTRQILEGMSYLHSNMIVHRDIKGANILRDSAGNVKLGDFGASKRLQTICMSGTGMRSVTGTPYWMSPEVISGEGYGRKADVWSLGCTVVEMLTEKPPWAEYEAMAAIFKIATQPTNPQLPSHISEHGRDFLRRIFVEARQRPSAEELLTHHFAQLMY
Sequence of UniProt P31751 (whole entry, looked up): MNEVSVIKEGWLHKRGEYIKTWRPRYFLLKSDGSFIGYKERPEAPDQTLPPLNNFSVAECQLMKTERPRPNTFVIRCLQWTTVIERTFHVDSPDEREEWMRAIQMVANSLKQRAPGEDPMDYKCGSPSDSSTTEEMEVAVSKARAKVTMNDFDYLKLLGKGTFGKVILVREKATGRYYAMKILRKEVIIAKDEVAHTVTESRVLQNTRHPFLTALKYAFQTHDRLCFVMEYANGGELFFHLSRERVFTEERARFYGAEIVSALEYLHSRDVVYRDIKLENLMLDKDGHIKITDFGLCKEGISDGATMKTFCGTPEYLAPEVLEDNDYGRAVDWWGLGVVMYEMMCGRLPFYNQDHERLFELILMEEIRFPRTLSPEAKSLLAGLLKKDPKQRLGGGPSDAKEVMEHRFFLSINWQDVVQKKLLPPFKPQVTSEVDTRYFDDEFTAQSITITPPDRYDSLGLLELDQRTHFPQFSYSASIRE
Sequence of UniProt P33981 (whole entry, looked up): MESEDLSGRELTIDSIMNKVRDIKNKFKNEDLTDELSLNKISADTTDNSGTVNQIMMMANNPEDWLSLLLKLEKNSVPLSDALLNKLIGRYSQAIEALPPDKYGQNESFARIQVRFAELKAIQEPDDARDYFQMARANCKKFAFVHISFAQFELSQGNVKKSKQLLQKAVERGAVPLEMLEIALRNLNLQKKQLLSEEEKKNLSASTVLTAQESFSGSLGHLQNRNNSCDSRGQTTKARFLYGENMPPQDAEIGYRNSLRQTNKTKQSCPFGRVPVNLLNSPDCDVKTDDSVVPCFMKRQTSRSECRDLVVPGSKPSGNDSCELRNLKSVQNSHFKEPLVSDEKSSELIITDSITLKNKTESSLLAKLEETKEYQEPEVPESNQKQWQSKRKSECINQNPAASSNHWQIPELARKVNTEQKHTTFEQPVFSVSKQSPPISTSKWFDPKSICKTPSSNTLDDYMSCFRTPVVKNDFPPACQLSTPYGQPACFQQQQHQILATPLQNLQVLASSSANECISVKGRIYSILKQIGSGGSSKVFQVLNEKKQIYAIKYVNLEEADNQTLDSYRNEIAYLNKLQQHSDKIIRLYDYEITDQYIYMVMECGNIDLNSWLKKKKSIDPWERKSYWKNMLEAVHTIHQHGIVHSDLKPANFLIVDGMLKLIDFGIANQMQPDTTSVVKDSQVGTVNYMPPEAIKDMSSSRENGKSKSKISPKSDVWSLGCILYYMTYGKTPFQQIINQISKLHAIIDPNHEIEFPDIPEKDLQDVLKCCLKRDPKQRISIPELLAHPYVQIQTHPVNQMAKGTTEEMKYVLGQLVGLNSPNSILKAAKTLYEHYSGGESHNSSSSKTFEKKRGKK

Block 1 — method: RNA Bind-n-Seq; molecule type: RNA; sample: in vitro; tested at: 365 nM; baseline: no-protein control; reading: higher = stronger binding
Target: RNA binding protein fox-1 homolog 2, RRM domain, GST-SBP tag (RBFOX2, Homo sapiens, UniProt O43251-10, residues 100-194)
Setting: natural RNA segment, single round, ends assumed
Construct (chain): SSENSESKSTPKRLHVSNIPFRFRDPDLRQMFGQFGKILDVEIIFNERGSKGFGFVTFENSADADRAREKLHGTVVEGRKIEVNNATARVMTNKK
Under “RBNS enrichment (R)”, `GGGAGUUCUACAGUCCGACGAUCUGAAGGAAAGGAGAUGCCAGGAUGCUACUCCAUUCCUUCUCUGGGAAUUGCCAGUCCAACUUUUCCUGGCACUGGAAGAAAAAAAAUAAGUGUCCCACCCCUGGAGGGUUUGGAAUUCUCGGGUGCCAA` is recorded as 0.356.
For `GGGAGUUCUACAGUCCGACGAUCGAACCUUAUCAGUGACUUGGCCAACAAGGGAAGCCUUGGGGCCUCAGAAUUCAUUGAAGAUUUGUUUUGGGACAACUGGAAGAAUCAGCACCAUGGAUACUCGCCCGUGGUGGAAUUCUCGGGUGCCAA`, “RBNS enrichment (R)” read 0.243.
Under “RBNS enrichment (R)”, `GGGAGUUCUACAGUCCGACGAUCAUAUUUGUUCUAGUUGGAAAGACGAAGCACUUUAUAAGCAUCAGACAAGUGUUUGGGACUAAUUGAGAAACAAGCCAGCUUAGAUGGAAGCUGUGCUGUGUGACUAUUAGUGGAAUUCUCGGGUGCCAA` is recorded as 0.487.
`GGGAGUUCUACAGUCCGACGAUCUGCUUCAGUCUCUGCCAUCUUCCAUGACUGCAUUUGUUCCUGCCUGCCUCGGCGGUAUCCACAGAAGACAGGCAAGAGGAUUGGAGCAGUUUUCUCACAGGUCUGCAAUUUGGAAUUCUCGGGUGCCAA`: “RBNS enrichment (R)” 1.91.
`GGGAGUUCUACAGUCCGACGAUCAUAGCAAUAAUACUGUGCUGUGGUGACCUCCGCCCUUGCCUUGUGCAUGUCACACCUCCUUUUCCUUUGCUUCACUUCUGUCAACUGUAGCGACUUUGGUGUGCAGUGAGUGGAAUUCUCGGGUGCCAA`: “RBNS enrichment (R)” 5.47.
`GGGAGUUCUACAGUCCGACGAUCAUCUGGAAGGAUUCUCACUCGUAUUUCCCACCCCUAGUGGCCAGAGGAGGGAGGGGCACAGUGAAGAAGGGAGCCCACCACCUCUCCGAAGAGGAAAGCCACGUAGAGUGUGGAAUUCUCGGGUGCCAA`: “RBNS enrichment (R)” 0.891.
`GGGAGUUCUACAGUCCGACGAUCGUCCCCAUGAAAUAAGAUGAAACUGAUUCCAUGCACUAGUACAUGUAGGCUUCUCCCUUGUGCAAAGCUUAGCAAUUUGUAGGAAACUUUGAUCUUUUUGUCCAAGAAAAUGGAAUUCUCGGGUGCCAA` — result for “RBNS enrichment (R)”: 0.389.
`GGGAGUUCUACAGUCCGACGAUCCUGUUCUCUGUGGCUGUGGACAGUCGUUGCCAGCUGCAUCUGUUGCCCUCACGGGGGAGUGUUCCUGUGUGGCUCCUGCUCCUGCUGUGUGUCGGGCUUAUUAUUGUGACUGGAAUUCUCGGGUGCCAA`: “RBNS enrichment (R)” 0.398.

Block 2 — method: protein-binding microarray; molecule type: double-stranded DNA, one strand shown; sample: in vitro; tested at: not given; reading: higher = stronger binding
Target: Protein C-ets-1 (ETS1, Homo sapiens, UniProt P14921, residues 1-441, full length assumed)
Sequence of UniProt P14921 (whole entry, looked up): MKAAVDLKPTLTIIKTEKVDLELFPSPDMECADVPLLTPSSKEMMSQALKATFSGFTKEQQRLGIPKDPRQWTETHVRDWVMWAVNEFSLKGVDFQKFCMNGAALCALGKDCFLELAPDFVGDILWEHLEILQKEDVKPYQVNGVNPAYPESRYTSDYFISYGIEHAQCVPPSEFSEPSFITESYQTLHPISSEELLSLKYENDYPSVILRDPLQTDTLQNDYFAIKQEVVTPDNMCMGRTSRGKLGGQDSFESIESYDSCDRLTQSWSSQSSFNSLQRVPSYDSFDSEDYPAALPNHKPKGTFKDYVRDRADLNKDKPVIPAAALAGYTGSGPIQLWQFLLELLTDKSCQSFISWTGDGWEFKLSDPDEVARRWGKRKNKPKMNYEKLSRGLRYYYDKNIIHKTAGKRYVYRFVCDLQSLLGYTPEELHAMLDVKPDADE
Setting: k-mer, scored over probes, only values ≥0.25
`ATCCGGGG` has an E-score of 0.447.
`ACACAGGA` gave an E-score of 0.281.
The E-score of `CCGGTTGC` is reported as 0.353.
With `AGGCGGAA` the E-score was 0.451.
For `ATCCGGGA`, the E-score was 0.434.
`AAAGGGAT` has an E-score of 0.308.
`CCGGCGCC` gave an E-score of 0.257.
The E-score of `CTACGGAA` is reported as 0.362.

Block 3 — tested at: 1 µM
SMILES: COc1cc(-c2cn(C3CCc4ccccc4N(CC(F)(F)F)C3=O)nn2)ccc1-n1ccc(C)n1 (stereo not shown)
For MAP3K6 (Homo sapiens, UniProt O95382); cell-free assay, competition with immobilised ligand: remaining binding read 53%.
The remaining binding was 84% (MAP3K15 (Homo sapiens, UniProt Q6ZN16); cell-free assay, competition with immobilised ligand).
It gave 100% for remaining binding (TTK (Homo sapiens, UniProt P33981); cell-free assay, competition with immobilised ligand).
Receptor-type tyrosine-protein kinase FLT3, autoinhibited (FLT3, Homo sapiens, UniProt P36888); cell-free assay, competition with immobilised ligand — remaining binding: 89%.
It gave 100% for remaining binding (Aurora kinase C (AURKC, Homo sapiens, UniProt Q9UQB9); cell-free assay, competition with immobilised ligand).
AAK1 (Homo sapiens, UniProt Q2M2I8); binding — remaining binding: 100%.
MAP3K3 (Homo sapiens, UniProt Q99759); cell-free assay, competition with immobilised ligand — remaining binding: 88%.
For EGFR (Homo sapiens, UniProt P00533, del747-750/T751S); cell-free assay, competition with immobilised ligand: remaining binding read 100%.
The remaining binding was 93% (AKT2 (Homo sapiens, UniProt P31751); cell-free assay, competition with immobilised ligand).
It gave 100% for remaining binding (CSNK1D (Homo sapiens, UniProt P48730); cell-free assay, competition with immobilised ligand).
It gave 100% for remaining binding (BMPR1B (Homo sapiens, UniProt O00238); cell-free assay, competition with immobilised ligand).

Block 4 — observed: enzyme activity; action: inhibitor; tested at: 0.5 µM; baseline: control
Target: Protein kinase C alpha type (PRKCA, Homo sapiens, UniProt P17252)
With `N#C/C(=C\c1ccc(O)c(O)c1)C(=O)NCc1ccccc1` the remaining activity was 99.1%.
For `O=c1cc(-c2cccc3c2Sc2ccccc2S3)oc(N2CCOCC2)c1`, the remaining activity was 80.3%.
`c1ccc(-c2cnc(Nc3ccc(OCCN4CCCC4)cc3)s2)cc1` gave a remaining activity of 106%.
`COc1cc2c(cc1OC)-c1[nH]nc(Nc3cccc(F)c3)c1C2` has a remaining activity of 99.2%.
`O=C(Nc1cccc(Nc2nccc(Nc3cccc(C(F)(F)F)c3)n2)c1)C1CC1` has a remaining activity of 71.9%.
With `Cn1nc2c3c(cccc31)C(=O)c1ccccc1-2` the remaining activity was 96.1%.
For `CCN(CC)CCNC(=O)c1c(C)[nH]c(/C=C2\C(=O)Nc3ccc(Cl)cc32)c1C`, the remaining activity was 93.1%.
